Experimental data collected from several papers.
Each line is one published result; not all experiments were run side by side. ± gives the spread as reported. Converted amounts (≈) assume the structure as drawn.
OPRL1: Nociceptin receptor (OPRL1, Homo sapiens, UniProt P41146)

Chains of the proteins cited; added tags and fusions are not shown. A line that says so, or that is headed by a name, gives the form on record, which may keep a tag or linker. Residues count along the entry.
UniProt P41146, whole entry: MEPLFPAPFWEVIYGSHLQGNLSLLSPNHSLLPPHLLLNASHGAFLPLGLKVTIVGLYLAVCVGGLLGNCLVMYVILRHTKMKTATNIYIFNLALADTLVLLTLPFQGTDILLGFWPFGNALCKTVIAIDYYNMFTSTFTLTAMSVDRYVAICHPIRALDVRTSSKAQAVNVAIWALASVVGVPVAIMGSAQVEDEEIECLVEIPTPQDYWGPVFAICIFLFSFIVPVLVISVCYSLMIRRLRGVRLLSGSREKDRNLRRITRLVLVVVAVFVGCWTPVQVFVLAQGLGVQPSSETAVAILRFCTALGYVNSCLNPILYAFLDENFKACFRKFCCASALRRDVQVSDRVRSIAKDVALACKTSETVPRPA
UniProt P37136, 32-614 limits assumed: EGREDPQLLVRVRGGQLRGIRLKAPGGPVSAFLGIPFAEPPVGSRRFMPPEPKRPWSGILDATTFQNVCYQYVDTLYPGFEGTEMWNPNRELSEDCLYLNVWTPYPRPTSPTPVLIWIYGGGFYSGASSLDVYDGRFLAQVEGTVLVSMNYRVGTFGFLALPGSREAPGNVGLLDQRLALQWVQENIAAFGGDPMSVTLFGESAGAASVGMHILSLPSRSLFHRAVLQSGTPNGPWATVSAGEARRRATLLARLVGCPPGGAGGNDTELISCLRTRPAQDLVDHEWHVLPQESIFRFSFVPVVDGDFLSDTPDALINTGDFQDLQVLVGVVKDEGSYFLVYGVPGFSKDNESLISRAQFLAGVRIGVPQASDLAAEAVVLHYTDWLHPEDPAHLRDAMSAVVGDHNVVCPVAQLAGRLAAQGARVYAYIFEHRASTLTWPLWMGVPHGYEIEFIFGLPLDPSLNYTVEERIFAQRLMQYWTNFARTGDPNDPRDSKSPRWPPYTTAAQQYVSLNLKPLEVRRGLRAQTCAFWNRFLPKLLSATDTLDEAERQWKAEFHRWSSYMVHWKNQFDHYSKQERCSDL
UniProt P08510, 1-655 with tags or gaps DEL6-46: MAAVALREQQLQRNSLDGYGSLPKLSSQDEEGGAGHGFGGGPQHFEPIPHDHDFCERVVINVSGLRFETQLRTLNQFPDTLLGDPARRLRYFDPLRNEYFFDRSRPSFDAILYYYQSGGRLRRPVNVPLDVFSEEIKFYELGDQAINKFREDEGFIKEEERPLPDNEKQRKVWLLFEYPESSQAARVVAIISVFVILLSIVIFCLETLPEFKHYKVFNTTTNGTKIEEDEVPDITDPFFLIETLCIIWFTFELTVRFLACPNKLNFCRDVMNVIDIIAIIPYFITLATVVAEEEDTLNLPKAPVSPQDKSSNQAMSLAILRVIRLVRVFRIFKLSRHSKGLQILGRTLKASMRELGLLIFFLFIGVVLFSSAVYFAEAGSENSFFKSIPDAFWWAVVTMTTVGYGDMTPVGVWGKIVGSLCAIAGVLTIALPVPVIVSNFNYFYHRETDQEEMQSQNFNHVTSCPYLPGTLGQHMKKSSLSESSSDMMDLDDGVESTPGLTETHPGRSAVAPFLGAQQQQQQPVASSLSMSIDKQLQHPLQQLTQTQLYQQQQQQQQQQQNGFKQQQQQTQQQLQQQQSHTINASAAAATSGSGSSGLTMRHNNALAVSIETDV

O=C(Nc1ccc(F)cc1)C1C(=O)N(O)C(=O)c2cc([N+](=O)[O-])ccc21 (stereo not drawn)  remaining activity (Lymphocytic choriomeningitis mammarenavirus; minigenome reporter gene; 50 µM; relative to: DMSO): 69.3%
O=S(=O)(c1cccc(F)c1)N1CCCC2(C1)Nc1cccnc1N=C2NC1CCCC1 (stereo not drawn)  CC50 (HEK293; cell viability, CellTiter-Glo; 72 h): > 70000 nM
CCOc1ccccc1-c1cc(C(=O)NC/C=C/S(C)(=O)=O)nn1COC  EC50 (Chikungunya virus; viral replication, nanoluciferase reporter; 181/25-nLuc-Capsid): 3000 nM
CC[C@H](C)[C@H](NC(=O)[C@H](C)NC(=O)[C@H](CCC(=O)O)NC(=O)[C@H](CCC(=O)O)NC(=O)[C@H](CC(C)C)NC(=O)[C@H](CCCCN)NC(=O)[C@H](CCCCN)NC(=O)[C@H](CCSC)NC(=O)[C@H](CCC(=O)O)NC(=O)[C@H](Cc1ccc(O)cc1)NC(=O)[C@H](CCC(=O)O)NC(=O)[C@H](CC(C)C)NC(=O)[C@H](CC(=O)O)NC(=O)[C@H](CC(C)C)NC(=O)[C@H](Cc1ccccc1)NC(=O)[C@H](Cc1ccccc1)NC(=O)[C@@H](NC(=O)[C@H](CC(N)=O)NC(=O)[C@@H](NC(=O)[C@H](CCC(N)=O)NC(=O)[C@H](CC(=O)O)NC(=O)[C@H](CC(C)C)NC(=O)[C@@H](N)CO)[C@@H](C)CC)C(C)C)C(=O)N[C@@H](CCCCN)C(=O)N[C@@H](CCCCN)C(=O)N[C@@H](CC(C)C)C(=O)N[C@@H](CCC(=O)O)C(=O)N[C@@H](CCC(=O)O)C(=O)N[C@@H](C)C(=O)N[C@@H](Cc1ccc(O)cc1)C(=O)N[C@H](C(=O)N[C@@H](CC(=O)O)C(=O)N[C@@H](CC(C)C)C(=O)N[C@@H](CCCCN)C(=O)N[C@@H](CCC(=O)O)C(=O)N[C@@H](CC(C)C)C(=O)O)[C@@H](C)CC  IC50 (SARS-CoV-2 EG.5.1 pseudovirus; pseudovirus infection, inhibitor, luciferase; Caco-2; 24 h, dual mutations): 752 nM
Cc1ccccc1S(=O)(=O)Nc1cccc(C(=O)NC2CCN(c3ncnc4[nH]cnc34)CC2)c1  relative infection (SARS-CoV-2; Wuhan-Hu-1; 200 µM; relative to: untreated infected cells): 19.3%
CC[C@H](C)[C@H](NC(=O)[C@H](C)NC(=O)[C@H](CCC(=O)O)NC(=O)[C@H](CCC(=O)O)NC(=O)[C@H](CC(C)C)NC(=O)[C@H](CCCCN)NC(=O)[C@H](CCCCN)NC(=O)[C@H](CCSC)NC(=O)[C@H](CCC(=O)O)NC(=O)[C@H](Cc1ccc(O)cc1)NC(=O)[C@H](CCC(=O)O)NC(=O)[C@H](CC(C)C)NC(=O)[C@H](CC(=O)O)NC(=O)[C@H](CC(C)C)NC(=O)[C@H](Cc1ccccc1)NC(=O)[C@H](Cc1ccc(O)cc1)NC(=O)[C@@H](NC(=O)[C@H](CC(N)=O)NC(=O)[C@@H](NC(=O)[C@H](CCC(N)=O)NC(=O)[C@H](CC(=O)O)NC(=O)[C@H](CC(C)C)NC(=O)[C@@H](N)CO)[C@@H](C)CC)C(C)C)C(=O)N[C@@H](CCCCN)C(=O)N[C@@H](CCCCN)C(=O)N[C@@H](CC(C)C)C(=O)N[C@@H](CCC(=O)O)C(=O)N[C@@H](CCC(=O)O)C(=O)N[C@@H](C)C(=O)N[C@@H](Cc1ccc(O)cc1)C(=O)N[C@H](C(=O)N[C@@H](CC(=O)O)C(=O)N[C@@H](CC(C)C)C(=O)N[C@@H](CCCCN)C(=O)N[C@@H](CCC(=O)O)C(=O)N[C@@H](CC(C)C)C(=O)O)[C@@H](C)CC  IC50 (SARS-CoV-2 Alpha pseudovirus; pseudovirus infection, inhibitor, luciferase; Caco-2; 24 h, dual mutations): 446 nM
CNC(=O)CC1C(=O)N(C2CCN([C@H]3CC[C@@H](C(C)C)CC3)CC2)c2ccccc21 (stereo partly drawn)  intrinsic activity (OPRL1; G protein interaction, BRET; HEK293 membranes; concentration not given, unit not given; relative to: N/OFQ maximal effect): 0.99 ± 0.08
CC[C@H](C)[C@H](NC(=O)[C@H](C)NC(=O)[C@H](CCC(=O)O)NC(=O)[C@H](CCC(=O)O)NC(=O)[C@H](CC(C)C)NC(=O)[C@H](CCCCN)NC(=O)[C@H](CCCCN)NC(=O)[C@H](CCSC)NC(=O)[C@H](CCC(=O)O)NC(=O)[C@H](Cc1ccc(O)cc1)NC(=O)[C@H](CCC(=O)O)NC(=O)[C@H](CC(C)C)NC(=O)[C@H](CC(=O)O)NC(=O)[C@H](CC(C)C)NC(=O)[C@H](Cc1ccccc1)NC(=O)[C@@H](NC(=O)[C@@H](NC(=O)[C@H](CC(N)=O)NC(=O)[C@@H](NC(=O)[C@H](CCC(N)=O)NC(=O)[C@H](CC(=O)O)NC(=O)[C@H](CC(C)C)NC(=O)[C@@H](N)CO)[C@@H](C)CC)C(C)C)[C@@H](C)O)C(=O)N[C@@H](CCCCN)C(=O)N[C@@H](CCCCN)C(=O)N[C@@H](CC(C)C)C(=O)N[C@@H](CCC(=O)O)C(=O)N[C@@H](CCC(=O)O)C(=O)N[C@@H](C)C(=O)N[C@@H](Cc1ccc(O)cc1)C(=O)N[C@H](C(=O)N[C@@H](CC(=O)O)C(=O)N[C@@H](CC(C)C)C(=O)N[C@@H](CCCCN)C(=O)N[C@@H](CCC(=O)O)C(=O)N[C@@H](CC(C)C)C(=O)O)[C@@H](C)CC  IC50 (SARS-CoV-2 Alpha pseudovirus; pseudovirus infection, inhibitor, luciferase; Caco-2; 24 h): 359 nM
CC(C)[C@H]1CC[C@@H](N2CCC3(CC2)C(=O)NCN3c2ccccc2)CC1  concentration ratio (OPRL1; calcium mobilization; CHO with Gαqi5; relative to: compound over N/OFQ EC50): 10
O=C(NC1CCN(c2ncnc3[nH]cnc23)CC1)c1cccc(S(=O)(=O)Nc2ccc(Cl)cc2)c1  relative infection (SARS-CoV-2; Wuhan-Hu-1; 0.09145 µM; relative to: untreated infected cells): 70.7%
O=C(O)C(O)=CC(=O)c1ccc2cc(O)c(O)cc2c1  remaining activity (Lymphocytic choriomeningitis mammarenavirus; minigenome reporter gene; 100 µM; relative to: DMSO): 71.7%
CN1C(=O)CCc2cc(C(=O)NCC=CS(C)(=O)=O)ccc21  IC50 (Chikungunya virus; viral replication, nanoluciferase reporter; 181/25-nLuc-Capsid): 190 ± 20 nM
CCOP(=O)(OCC)ON1C(=O)c2cccc3cccc(c23)C1=O  IC50 (Ache (Rattus norvegicus, UniProt P37136); enzyme activity, inhibitor, discontinuous Ellman; rat, postnatal day 70, rat skeletal muscle homogenate; 15 min, 37 °C): 41 nM
CC[C@H](C)[C@@H]1NC(=O)[C@H](CCCNC(=N)N)NC(=O)[C@@H](N)CSSC[C@@H]2NC(=O)[C@@H]3CSSC[C@@H](C(=O)N[C@H](C(=O)O)C(C)C)NC(=O)[C@H](CCCCN)NC(=O)[C@H](CC(N)=O)NC(=O)[C@H](Cc4ccccc4)NC(=O)[C@H](CCCNC(=N)N)NC(=O)[C@H](CC(N)=O)NC(=O)[C@H](CSSC[C@H](NC(=O)[C@H](CCCCN)NC(=O)[C@H](CCC(N)=O)NC(=O)[C@H](CC(N)=O)NC(=O)[C@@H]4C[C@@H](O)CN4C1=O)C(=O)N[C@@H](Cc1ccccc1)C(=O)N[C@@H](CCC(N)=O)C(=O)N[C@@H](Cc1c[nH]cn1)C(=O)N[C@@H](CC(C)C)C(=O)N[C@@H](CC(=O)O)C(=O)N[C@@H](CC(=O)O)C(=O)N3)NC(=O)[C@H](CCCCN)NC(=O)[C@H](CCCNC(=N)N)NC(=O)[C@H](CO)NC2=O  Kd (Sh (Drosophila melanogaster, UniProt P08510, del6-46); potassium current, outside-out patch clamp; chronic application, zero voltage, internal K 15, added: 1 mM TEA): 313 ± 37 nM
c1ccc2c(NC3CCNCC3)nc(NCc3ccc(CNCCCNC4CCCCC4)cc3)nc2c1  CC50 (CEM; 72 h): > 50000 nM
COc1cc(Cc2cnc(N)nc2N)cc(/C=C/C(=O)N2N=Cc3ccccc3[C@@H]2C=C(C)C)c1OC  MIC (Bacillus anthracis): 0.5 to 1 µg/mL (≈ 1 to 2.01 µM)
O=S(=O)(c1cccs1)N1CCCC2(C1)Nc1cccnc1N=C2NC1CCCC1 (stereo not drawn)  CC50 (HEK293; cell viability, CellTiter-Glo; 72 h): > 70000 nM
O=C(NC1CCN(c2ncnc3[nH]cnc23)CC1)c1cccc(NS(=O)(=O)c2ccc(Cl)cc2)c1  relative infection (SARS-CoV-2; Wuhan-Hu-1; 0.823 µM; relative to: untreated infected cells): 55.5%
CC[C@H](C)[C@H](NC(=O)[C@H](C)NC(=O)[C@H](CCC(=O)O)NC(=O)[C@H](CCC(=O)O)NC(=O)[C@H](CC(C)C)NC(=O)[C@H](CCCCN)NC(=O)[C@H](CCCCN)NC(=O)[C@H](CCSC)NC(=O)[C@H](CCC(=O)O)NC(=O)[C@H](Cc1ccc(O)cc1)NC(=O)[C@H](CCC(=O)O)NC(=O)[C@H](CC(C)C)NC(=O)[C@H](CC(=O)O)NC(=O)[C@H](CC(C)C)NC(=O)[C@H](Cc1ccccc1)NC(=O)[C@@H](NC(=O)[C@@H](NC(=O)[C@H](CC(N)=O)NC(=O)[C@@H](NC(=O)[C@H](CCC(N)=O)NC(=O)[C@H](CC(=O)O)NC(=O)[C@H](CC(C)C)NC(=O)[C@@H](N)CO)[C@@H](C)CC)C(C)C)[C@@H](C)O)C(=O)N[C@@H](CCCCN)C(=O)N[C@@H](CCCCN)C(=O)N[C@@H](CC(C)C)C(=O)N[C@@H](CCC(=O)O)C(=O)N[C@@H](CCC(=O)O)C(=O)N[C@@H](CO)C(=O)N[C@@H](Cc1ccc(O)cc1)C(=O)N[C@H](C(=O)N[C@@H](CC(=O)O)C(=O)N[C@@H](CC(C)C)C(=O)N[C@@H](CCCCN)C(=O)N[C@@H](CCC(=O)O)C(=O)N[C@@H](CC(C)C)C(=O)O)[C@@H](C)CC  IC50 (SARS-CoV-2 XBB.1.5 pseudovirus; pseudovirus infection, inhibitor, luciferase; Caco-2; 24 h): 702 nM
O=C(NC1CCN(c2ncnc3[nH]cnc23)CC1)c1cccc(NS(=O)(=O)c2ccc([N+](=O)[O-])cc2)c1  relative infection (SARS-CoV-2; Wuhan-Hu-1; 66.67 µM; relative to: untreated infected cells): 17.2%
O=C(NCc1ccc(F)cc1)C1C(=O)N(O)C(=O)c2cc(C(F)(F)F)ccc21 (stereo not drawn)  remaining activity (Lymphocytic choriomeningitis mammarenavirus; minigenome reporter gene; 100 µM; relative to: DMSO): 51.9%

Some of these lines once more:
O=C(NC1CCN(c2ncnc3[nH]cnc23)CC1)c1cccc(S(=O)(=O)Nc2ccc(Cl)cc2)c1  relative infection (SARS-CoV-2; Wuhan-Hu-1; 0.09145 µM; relative to: untreated infected cells): 70.7%
CCOP(=O)(OCC)ON1C(=O)c2cccc3cccc(c23)C1=O  IC50 (Ache (Rattus norvegicus, UniProt P37136); enzyme activity, inhibitor, discontinuous Ellman; rat, postnatal day 70, rat skeletal muscle homogenate; 15 min, 37 °C): 41 nM
